Measurements pooled from the literature.
Each line is one published result; not all experiments were run side by side. “And” joins repeats or separate records; there may be more than shown. ± marks the error that the study gave.

C=CC(=O)Nc1cc(Nc2nccc(-c3cn(C)c4ccccc34)n2)c(OC)cc1N(C)CCNC
remaining compound (human, plasma; 270 ng/mL, 30 d, on ice, high QC level): 50%

Cl.NCc1ccc2c(c1)CN(C1CCC(=O)NC1=O)C2=O (stereo not shown)
half-life (male cynomolgus monkey, whole blood): 0.0717 h

CC1Cc2ccccc2N1C(=O)CN1CCN(Cc2ccccc2)CC1 (stereo not shown)
concentration (female NMRI mice, whole blood; intraperitoneal, 10 mg/kg free base, 15 min): 216 ng/mL and 142 ng/mL

O=C(Nc1ccccc1)C1(C(F)(F)F)CCC1
solubility (PBS; 2 h, pH 7.4, 25 °C, 2% DMSO): 403 µM

Cc1nn(-c2nc3c(F)cc(F)cc3s2)c(O)c1C(c1ccc(C(F)(F)F)cc1)c1c(C)nn(-c2nc3c(F)cc(F)cc3s2)c1O
MRT(0-last) (ICR mouse, plasma; intraperitoneal, 10 mg/kg): 6.42 h and 7.11 h and 7.82 h

COc1ccc(C(=O)c2c(C(=O)NCCCN(C)C)oc3ccc(Cl)cc3c2=O)cc1OC
AUC extrapolated share (C57BL/6 mice, male, plasma; oral, 5 mg/kg): 11%

CC(C)(O)c1ncc([S@](N)(=O)=NC(=O)Nc2c3c(cc4c2CCC4)CCC3)s1
subjects with TEAEs (refers to: infections and infestations; healthy human; oral, dose not given, all active doses pooled): 2%

C/C(N)=N/C(=N\S(=O)(=O)c1ccc(C(F)(F)F)cc1)N1C[C@H](c2ccccc2)C(c2ccc(Cl)cc2)=N1
Cmax (male C57BL/6 mouse, liver; intravenous, 5 mg/kg): 2840 ng/mL

CN(C)S(=O)(=O)c1ccc(S(=O)(=O)N2CCC(n3c(=O)[nH]c4ccccc43)CC2)cc1
solubility (HPLC; 20% Intralipid; 24 h, 20 °C): 50 µg/mL

CC(=O)N([O-])CCCCCNC(=O)CCC(=O)N([O-])CCCCCNC(=O)CCC(=O)N([O-])CCCCCN.[89Zr+4]
tracer uptake (mouse, kidney; 4 h): 6.3 %ID/g

COc1cccc(OC)c1-c1cc(C(=O)NC2(C(=O)O)C3CC4CC(C3)CC2C4)nn1-c1ccc(C(=O)N(C)CCCN(C)CCCN(C)C(=O)[C@H](CCCCNC(=O)[C@H](CC(C)C)NC(=O)C2OC2C(=O)O)NC(=O)CN2CCN(CC(=O)[O-])CCN(CC(=O)[O-])CCN(CC(=O)[O-])CC2)cc1C(C)C.[177Lu+3] (mixture of isomers)
tumour-to-small intestine ratio (mouse HT-29 xenograft; 24 h, biodistribution; reference: tumour over small intestine): 16.4

C=CC(=O)Nc1cc(Nc2nccc(-c3c[nH]c4ccccc34)n2)c(OC)cc1N(C)CCN(C)C
recovery (human plasma; 72 h, storage stability, LLOQ sample): 51.2%

CCCCC/C=C\CCCO[Si](CCCCN(C)CCO)(OCCC/C=C\CCCCC)OCCC/C=C\CCCCC
zeta potential (pH 7.5, formulated): 0.03 mV

C=C[C@]1(C)C[C@@H](OC(=O)CSc2ccc(NC(=O)c3ccco3)cc2)[C@]2(C)[C@H](C)CC[C@]3(CCC(=O)[C@H]32)[C@@H](C)[C@@H]1O
%T>MIC (chickens; 40 to 80 mg/kg): 100%

CSCC[C@H](N)C(=O)N[C@@H](CO)C(=O)N[C@H](C(=O)N[C@@H](C)C(=O)NCC(=O)N[C@@H](CC(C)C)C(=O)N[C@@H](CCCCN)C(=O)N[C@@H](CCCCN)C(=O)N[C@@H](CCC(N)=O)C(=O)N[C@@H](Cc1c[nH]c2ccccc12)C(=O)N[C@@H](Cc1ccc(O)cc1)C(=O)N[C@@H](CCCCN)C(=O)N[C@@H](C)C(=O)N[C@@H](CO)C(=O)N[C@@H](CCC(N)=O)C(=O)N[C@@H](CC(C)C)C(=O)N[C@H](C(=O)N[C@@H](CO)C(=O)N[C@@H](CCC(=O)O)C(=O)N[C@@H](CCCCN)C(=O)N[C@H](C(=O)NCC(=O)NCC(=O)N[C@@H](C)C(N)=O)C(C)C)C(C)C)C(C)C
helical content (circular dichroism; 25% DOPS/75% DOPC liposomes; 1 mM lipid): 28%

CC[C@H](C)[C@@H]1NC(=O)[C@H](Cc2ccc(O)cc2)NC(=O)CCCSC[C@@H](C(=O)N(CC(=O)N[C@@H](CC(C)C)C(=O)NCC(N)=O)Cc2ccc(F)cc2)NC(=O)[C@H](CC(N)=O)NC(=O)[C@H](CCC(N)=O)NC1=O
subjects with any TEAE (human; intranasal, 300 µg single dose): 17%

OC1(C(F)(F)F)CCN(c2nc(Nc3ccnc(C(F)(F)F)c3)nc(-c3cccc(C(F)(F)F)n3)n2)C1 (stereo not shown)
half-life (monkey, plasma; oral, 1 mg/kg): 12.7 ± 2.19 h

COc1cccc(OC)c1-c1cc(C(=O)NC2(C(=O)O)C3CC4CC(C3)CC2C4)nn1-c1ccc(C(=O)N(C)CCOCCOCCN(C)C(=O)[C@H](CCCCNC(=O)[C@H](CC(C)C)NC(=O)C2OC2C(=O)O)NC(=O)CN2CCN(CC(=O)[O-])CCN(CC(=O)[O-])CCN(CC(=O)[O-])CC2)cc1C(C)C.[177Lu+3] (mixture of isomers)
tissue uptake (mouse, HT-29 xenograft, HT-29 tumour; 4 h post injection): 4.6 %ID/g

O=C(Nc1cnccc1-c1ccc([18F])nc1)c1ccnc(NC(=O)C2CC2)c1
SUV (FVB/NJ mouse, both sexes, brain; intravenous, 5 min, with: tariquidar 15 mg/kg iv): 0.341

CCCCCCCCCCCCOC(=O)c1ccc(O)cc1
mass balance (empty Transwells without cells; 5 µM, 60 min, apical to basolateral): 85%

C=C(NC(=O)c1csc(-c2nc3c(cc2O)-c2nc(cs2)C(=O)NC(C(C)O)C(=O)NC(=C(C)OC)c2nc(cs2)C(=O)NC2c4nc(cs4)C(=O)NC(COC(=O)c4c5c6c(cccc6n4O)COC(=O)C(OC4CC(C)(O)C(N(C)C)C(C)O4)C2OC5)c2nc-3cs2)n1)C(N)=O (stereo not shown)
half-life (cynomolgus monkey, male, plasma; intravenous infusion, 3 mg/kg multiple doses, day 7): 5.87 h

Cc1noc(C)c1Cn1cc(N2C(=O)CN(Cc3cccc(OS(=O)(=O)O)c3)C2=O)cn1
plasma concentration (rat Sprague-Dawley male, plasma; intravenous, 1 mg/kg of parent drug, 0.5 h): 2230 ng/mL

CC[C@H](C)[C@H](NC(=O)[C@H](CCCCN)NC(=O)[C@H](CCC(=O)O)NC(=O)[C@H](CCCCN)NC(=O)[C@H](CC(C)C)NC(=O)[C@H](C)NC(=O)[C@H](C)NC(=O)[C@@H](NC(=O)[C@H](CCCCN)NC(=O)[C@@H]1CSCc2ccccc2CSC[C@H](NC(=O)[C@@H](NC(=O)[C@H](CCCCN)NC(C)=O)[C@@H](C)CC)C(=O)N[C@@H](C)C(=O)N[C@@H](CC(C)C)C(=O)N[C@@H](CCCCN)C(=O)N1)[C@@H](C)CC)C(=O)N[C@@H](C)C(=O)N[C@@H](C)C(=O)N[C@@H](CC(C)C)C(=O)N[C@@H](CCCCN)C(=O)N[C@@H](CCC(=O)O)C(=O)NCC(=O)N[C@@H](Cc1c[nH]c2ccccc12)C(N)=O
helicity (circular dichroism at 222 nm; PBS; pH 7.4, 20 °C, single peptide 50 µM total): 54%

CC[C@H](C)[C@H](NC(=O)[C@H](CC(=O)O)NC(C)=O)C(=O)N[C@@H](Cc1ccccc1)C(=O)N[C@@H](Cc1ccccc1)C(=O)N[C@@H](CCCNC(=N)N)C(=O)N[C@@H](Cc1ccc(O)cc1)C(=O)N[C@@H](CC(N)=O)C(=O)NCC(=O)N[C@@H](CCCCN)C(=O)N[C@H](C(=O)N[C@@H](Cc1c[nH]c2ccccc12)C(=O)N[C@@H](Cc1c[nH]c2ccccc12)C(=O)N[C@@H](CCCNC(=N)N)C(=O)O)C(C)C
α-helix content (circular dichroism; free peptide in solution; concentration not given, 25 °C, no insulin present): 6.45%

CCCCN1C(=O)c2cccc3c(NCCCCCN4CCOCC4)ccc(c23)C1=O
fluorescence lifetime (DMSO): 10.4 ns
